Results pooled from the literature.
Lines come from different studies, so protocols differ. ± gives the spread as reported.
Tumor necrosis factor receptor superfamily member 9/Nectin-4: Tumor necrosis factor receptor superfamily member 9/Nectin-4 (Homo sapiens, UniProt Q07011+Q96NY8)
Sequence of UniProt Q07011 (whole entry, looked up): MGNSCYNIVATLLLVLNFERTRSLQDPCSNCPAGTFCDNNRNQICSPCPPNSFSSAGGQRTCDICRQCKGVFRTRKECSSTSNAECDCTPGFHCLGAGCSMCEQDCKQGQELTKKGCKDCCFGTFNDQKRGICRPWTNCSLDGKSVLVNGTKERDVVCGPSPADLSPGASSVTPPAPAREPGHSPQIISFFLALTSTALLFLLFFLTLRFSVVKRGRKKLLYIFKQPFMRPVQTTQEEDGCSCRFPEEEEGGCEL
Sequence of UniProt Q96NY8 (whole entry, looked up): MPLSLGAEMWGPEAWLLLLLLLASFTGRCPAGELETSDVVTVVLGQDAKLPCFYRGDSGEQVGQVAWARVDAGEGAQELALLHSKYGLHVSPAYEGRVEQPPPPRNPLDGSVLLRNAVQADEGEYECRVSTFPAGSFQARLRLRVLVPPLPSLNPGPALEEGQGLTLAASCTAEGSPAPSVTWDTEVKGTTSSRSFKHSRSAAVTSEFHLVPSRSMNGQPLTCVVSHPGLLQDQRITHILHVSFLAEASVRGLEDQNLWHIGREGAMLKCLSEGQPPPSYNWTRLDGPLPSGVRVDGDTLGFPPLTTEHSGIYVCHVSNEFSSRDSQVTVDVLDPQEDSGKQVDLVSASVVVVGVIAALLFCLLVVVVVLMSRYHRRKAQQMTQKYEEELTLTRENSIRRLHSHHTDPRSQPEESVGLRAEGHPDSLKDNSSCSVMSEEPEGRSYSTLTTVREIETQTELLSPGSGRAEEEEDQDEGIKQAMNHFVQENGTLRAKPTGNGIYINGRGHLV
sdiA: Regulatory protein SdiA (sdiA, Escherichia coli, UniProt P07026)
Sequence of UniProt P07026 (whole entry, looked up): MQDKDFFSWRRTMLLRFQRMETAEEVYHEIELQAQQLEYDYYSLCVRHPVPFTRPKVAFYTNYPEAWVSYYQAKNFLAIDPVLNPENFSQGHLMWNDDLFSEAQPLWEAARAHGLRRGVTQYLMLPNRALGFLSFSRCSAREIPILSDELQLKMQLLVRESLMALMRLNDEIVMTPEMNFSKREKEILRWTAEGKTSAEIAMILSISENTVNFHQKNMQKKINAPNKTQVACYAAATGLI
H2-D1 17: H-2 class I histocompatibility antigen, D-B alpha chain, 17 (H2-D1, Mus musculus, UniProt P01899)
Sequence of UniProt P01899 (whole entry, looked up): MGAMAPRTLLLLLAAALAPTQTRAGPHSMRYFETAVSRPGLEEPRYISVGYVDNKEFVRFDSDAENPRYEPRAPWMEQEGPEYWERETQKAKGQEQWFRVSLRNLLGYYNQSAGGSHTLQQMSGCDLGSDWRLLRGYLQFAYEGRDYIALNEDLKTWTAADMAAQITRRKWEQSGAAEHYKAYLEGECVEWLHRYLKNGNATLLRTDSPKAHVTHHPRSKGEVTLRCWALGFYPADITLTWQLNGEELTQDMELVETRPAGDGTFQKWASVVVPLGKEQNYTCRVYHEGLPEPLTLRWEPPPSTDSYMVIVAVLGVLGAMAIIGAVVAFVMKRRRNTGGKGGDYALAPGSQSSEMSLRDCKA
Sequence of UniProt P07700 (whole entry, unmodified, looked up): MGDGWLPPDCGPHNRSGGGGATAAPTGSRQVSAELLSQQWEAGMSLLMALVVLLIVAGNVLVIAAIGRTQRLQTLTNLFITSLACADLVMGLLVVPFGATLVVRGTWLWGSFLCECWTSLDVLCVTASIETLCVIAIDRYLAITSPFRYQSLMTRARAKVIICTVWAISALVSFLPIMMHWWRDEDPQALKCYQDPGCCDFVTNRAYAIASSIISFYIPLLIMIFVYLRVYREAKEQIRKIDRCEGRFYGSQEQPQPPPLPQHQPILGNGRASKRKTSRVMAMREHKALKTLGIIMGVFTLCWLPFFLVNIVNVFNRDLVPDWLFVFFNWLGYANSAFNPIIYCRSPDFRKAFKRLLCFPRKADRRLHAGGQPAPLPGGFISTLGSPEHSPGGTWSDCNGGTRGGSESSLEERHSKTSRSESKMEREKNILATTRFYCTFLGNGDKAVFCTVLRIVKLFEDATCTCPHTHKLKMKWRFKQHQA
Sequence of UniProt P03372 (whole entry, looked up): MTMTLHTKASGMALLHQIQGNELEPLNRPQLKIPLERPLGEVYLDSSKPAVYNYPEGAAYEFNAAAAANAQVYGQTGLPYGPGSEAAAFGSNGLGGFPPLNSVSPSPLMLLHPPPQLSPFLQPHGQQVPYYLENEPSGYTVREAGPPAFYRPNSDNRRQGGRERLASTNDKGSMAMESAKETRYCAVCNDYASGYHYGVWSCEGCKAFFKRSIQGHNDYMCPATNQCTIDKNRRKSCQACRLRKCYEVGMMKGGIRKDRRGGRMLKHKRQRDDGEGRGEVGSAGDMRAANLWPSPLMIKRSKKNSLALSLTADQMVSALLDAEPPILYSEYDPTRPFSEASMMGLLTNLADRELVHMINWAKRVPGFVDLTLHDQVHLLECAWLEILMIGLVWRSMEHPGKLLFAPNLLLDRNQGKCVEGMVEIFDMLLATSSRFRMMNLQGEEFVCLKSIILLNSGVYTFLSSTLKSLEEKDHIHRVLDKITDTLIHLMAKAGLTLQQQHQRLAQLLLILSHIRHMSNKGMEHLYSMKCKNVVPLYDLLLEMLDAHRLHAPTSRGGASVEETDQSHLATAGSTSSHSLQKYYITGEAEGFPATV
Sequence of UniProt Q16539 (whole entry, looked up): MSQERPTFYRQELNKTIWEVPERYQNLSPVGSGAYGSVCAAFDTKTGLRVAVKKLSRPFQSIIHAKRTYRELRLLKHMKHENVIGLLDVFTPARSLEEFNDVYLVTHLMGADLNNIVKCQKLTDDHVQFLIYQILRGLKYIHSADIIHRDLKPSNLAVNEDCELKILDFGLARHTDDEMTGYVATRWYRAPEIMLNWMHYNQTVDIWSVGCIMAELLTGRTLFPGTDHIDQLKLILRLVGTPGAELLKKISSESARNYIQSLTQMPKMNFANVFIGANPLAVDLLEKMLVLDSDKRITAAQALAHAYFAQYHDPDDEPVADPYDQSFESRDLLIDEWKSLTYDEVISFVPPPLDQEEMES

CCCC[C@@H]1NC(=O)[C@H](Cc2ccc(O)cc2)NC(=O)[C@@H]2CCCN2C(=O)[C@H](CC(=O)O)NC(=O)[C@H](C)NC(=O)[C@H](Cc2ccccc2)NC(=O)[C@@H]2CSCCC(=O)N3CN(CN(C3)C(=O)CCSC[C@H](NC(C)=O)C(=O)N[C@@H](CC(C)(C)C)C(=O)N3CCC[C@H]3C(=O)N[C@@H](CCC(=O)O)C(=O)N[C@H](CCCCNC(=O)CCc3cn(CCOCCOCCOCCOCCOCCC(=O)N[C@H]4CSCCC(=O)N5CN6CN(C5)C(=O)CCSC[C@H](NC(=O)[C@@H](CC(=O)O)NC(=O)[C@H](Cc5cccc7ccccc57)NC(=O)[C@@H]5CCCN5C4=O)C(=O)N[C@@H](CCSC)C(=O)N[C@@H](CCCCNC(=N)N)C(=O)N[C@@H](CC(=O)O)C(=O)N[C@@H](Cc4c[nH]c5ccccc45)C(=O)N[C@@H](CO)C(=O)N[C@@H]([C@@H](C)O)C(=O)N4CCC[C@H]4C(=O)N4C[C@H](O)C[C@H]4C(=O)N[C@@H](Cc4c[nH]c5ccccc45)C(=O)N[C@H](C(N)=O)CSCCC6=O)nn3)C(=O)N3CCC[C@H]3C(=O)N[C@@H](Cc3ccc(O)cc3)C(=O)N2)C(=O)CCSC[C@@H](C(N)=O)NC1=O  EC50 (Tumor necrosis factor receptor superfamily member 9/Nectin-4; reporter gene, agonist; HT-1376 coculture with reporter cells): 0.00064 µM
CCCCCCCCCC(=O)N[C@H]1CCOC1=O  EC50 (sdiA): 0.016 µM
CCCC[C@@H]1NC(=O)[C@H](Cc2ccc(O)cc2)NC(=O)[C@@H]2CCCN2C(=O)[C@H](CC(=O)O)NC(=O)[C@H](C)NC(=O)[C@H](Cc2ccccc2)NC(=O)[C@@H]2CSCCC(=O)N3CN(CN(C3)C(=O)CCSC[C@@H](C(=O)N[C@@H](C)C(N)=O)NC1=O)C(=O)CCSC[C@H](NC(C)=O)C(=O)N[C@@H](CC(C)(C)C)C(=O)N1CCC[C@H]1C(=O)N[C@@H](CCC(=O)O)C(=O)N[C@H](CCCCNC(=O)CCc1cn(CCOCCOCCOCCOCCOCCC(=O)NCCCC[C@H]3NC(=O)[C@H](Cc4cccc5ccccc45)NC(=O)[C@@H]4CCCN4C(=O)CCSCCC(=O)N4CN5CN(C4)C(=O)CCSC[C@H](NC3=O)C(=O)N[C@@H](CCSC)C(=O)N[C@@H](CCCCNC(=N)N)C(=O)N[C@@H](CC(=O)O)C(=O)N[C@@H](Cc3c[nH]c4ccccc34)C(=O)N[C@@H](CO)C(=O)N[C@@H]([C@@H](C)O)C(=O)N3CCC[C@H]3C(=O)N3C[C@H](O)C[C@H]3C(=O)N[C@@H](Cc3c[nH]c4ccccc34)C(=O)N[C@H](C(N)=O)CSCCC5=O)nn1)C(=O)N1CCC[C@H]1C(=O)N[C@@H](Cc1ccc(O)cc1)C(=O)N2  EC50 (Tumor necrosis factor receptor superfamily member 9/Nectin-4; reporter gene, agonist; HT-1376 coculture with reporter cells): 0.00215 µM
CC[C@H](C)[C@H](NC(=O)[C@H](C)NC(=O)[C@@H](NC(=O)[C@H](C)NC(=O)[C@H](C)NC(=O)[C@H](CC(N)=O)NC(=O)[C@H](Cc1c[nH]c2ccccc12)NC(=O)[C@@H](NC(=O)[C@H](CO)NC(=O)[C@@H](N)CO)C(C)C)[C@@H](C)O)C(=O)O  EC50 (H2-D1 17; H-2D stabilisation, flow cytometry; RMA-S TAP-deficient; overnight): 5 µM
CCCC[C@@H]1NC(=O)[C@H](Cc2ccc(O)cc2)NC(=O)[C@@H]2CCCN2C(=O)[C@H](CC(=O)O)NC(=O)[C@H](C)NC(=O)[C@H](Cc2ccccc2)NC(=O)[C@@H]2CSCCC(=O)N3CN(CN(C3)C(=O)CCSC[C@H](NC(C)=O)C(=O)N[C@@H](CC(C)(C)C)C(=O)N3CCC[C@H]3C(=O)N[C@@H](CCC(=O)O)C(=O)N[C@H](CCCCNC(=O)CCc3cn(CCOCCOCCOCCN(CCOCCOCCOCCC(=O)N[C@H]4CSCCC(=O)N5CN6CN(C5)C(=O)CCSC[C@H](NC(=O)[C@@H](CC(=O)O)NC(=O)[C@H](Cc5cccc7ccccc57)NC(=O)[C@@H]5CCCN5C4=O)C(=O)N[C@@H](CCSC)C(=O)N[C@@H](CCCCNC(=N)N)C(=O)N[C@@H](CC(=O)O)C(=O)N[C@@H](Cc4c[nH]c5ccccc45)C(=O)N[C@@H](CO)C(=O)N[C@@H]([C@@H](C)O)C(=O)N4CCC[C@H]4C(=O)N4C[C@H](O)C[C@H]4C(=O)N[C@@H](Cc4c[nH]c5ccccc45)C(=O)N[C@H](C(N)=O)CSCCC6=O)CCOCCOCCOCCn4cc(CCC(=O)NCCCC[C@H]5NC(=O)[C@H](CCC(=O)O)NC(=O)[C@@H]6CCCN6C(=O)[C@H](CC(C)(C)C)NC(=O)[C@@H](NC(C)=O)CSCCC(=O)N6CN7CN(C6)C(=O)CCSC[C@H](NC(=O)[C@H](Cc6ccc(O)cc6)NC(=O)[C@@H]6CCCN6C5=O)C(=O)N[C@@H](Cc5ccccc5)C(=O)N[C@@H](C)C(=O)N[C@@H](CC(=O)O)C(=O)N5CCC[C@H]5C(=O)N[C@@H](Cc5ccc(O)cc5)C(=O)N[C@@H](CCCC)C(=O)NCCSCCC7=O)nn4)nn3)C(=O)N3CCC[C@H]3C(=O)N[C@@H](Cc3ccc(O)cc3)C(=O)N2)C(=O)CCSCCNC1=O  EC50 (Tumor necrosis factor receptor superfamily member 9/Nectin-4; reporter gene, agonist; HT-1376 coculture with reporter cells): 0.00063 µM
CC(C)[C@H](NC(=O)[C@H](CO)NC(=O)[C@@H](N)CO)C(=O)N[C@@H](Cc1c[nH]c2ccccc12)C(=O)N[C@@H](CC(N)=O)C(=O)N[C@@H](C)C(=O)N[C@H](C(=O)N[C@H](C(=O)N[C@@H](C)C(=O)N[C@@H](C)C(=O)O)[C@@H](C)O)[C@@H](C)O  EC50 (H2-D1 17; H-2D stabilisation, flow cytometry; RMA-S TAP-deficient; overnight): 40 µM
CCCC[C@@H]1NC(=O)[C@H](Cc2ccc(O)cc2)NC(=O)[C@@H]2CCCN2C(=O)[C@H](CC(=O)O)NC(=O)[C@H](C)NC(=O)[C@H](Cc2ccccc2)NC(=O)[C@@H]2CSCCC(=O)N3CN(CN(C3)C(=O)CCSC[C@@H](C(=O)N[C@@H](CNC(=O)CCc3cn(CCOCCOCCOCCN(CCOCCOCCOCCC(=O)N[C@H]4CSCCC(=O)N5CN6CN(C5)C(=O)CCSC[C@H](NC(=O)[C@@H](CC(=O)O)NC(=O)[C@H](Cc5cccc7ccccc57)NC(=O)[C@@H]5CCCN5C4=O)C(=O)N[C@@H](CCSC)C(=O)N[C@@H](CCCCNC(=N)N)C(=O)N[C@@H](CC(=O)O)C(=O)N[C@@H](Cc4c[nH]c5ccccc45)C(=O)N[C@@H](CO)C(=O)N[C@@H]([C@@H](C)O)C(=O)N4CCC[C@H]4C(=O)N4C[C@H](O)C[C@H]4C(=O)N[C@@H](Cc4c[nH]c5ccccc45)C(=O)N[C@H](C(N)=O)CSCCC6=O)CCOCCOCCOCCn4cc(CCC(=O)NC[C@H](NC(=O)[C@@H]5CSCCC(=O)N6CN7CN(C6)C(=O)CCSC[C@H](NC(=O)[C@H](Cc6ccc(O)cc6)NC(=O)[C@@H]6CCCN6C(=O)[C@@H](C)NC(=O)[C@H](CCC(=O)O)NC(=O)[C@@H]6CCCN6C(=O)[C@H](CC(C)(C)C)NC(=O)[C@@H](NC(C)=O)CSCCC7=O)C(=O)N[C@@H](Cc6ccccc6)C(=O)N[C@@H](C)C(=O)N[C@@H](CC(=O)O)C(=O)N6CCC[C@H]6C(=O)N[C@@H](Cc6ccc(O)cc6)C(=O)N[C@@H](CCCC)C(=O)N5)C(N)=O)nn4)nn3)C(N)=O)NC1=O)C(=O)CCSC[C@H](NC(C)=O)C(=O)N[C@@H](CC(C)(C)C)C(=O)N1CCC[C@H]1C(=O)N[C@@H](CCC(=O)O)C(=O)N[C@H](C)C(=O)N1CCC[C@H]1C(=O)N[C@@H](Cc1ccc(O)cc1)C(=O)N2  EC50 (Tumor necrosis factor receptor superfamily member 9/Nectin-4; reporter gene, agonist; HT-1376 coculture with reporter cells): 0.0002 µM
C/C(O)=C(\C#N)C(=O)Nc1cc(Br)ccc1Br  EC50 (MAPK14 (Homo sapiens, UniProt Q16539); thermal stabilization, binder, isothermal NanoLuc TSA; permeabilized HeLa, Nluc fusion): 12.5 µM
CC(CCc1ccc(O)cc1)NCCc1ccc(O)c(O)c1 (centres unmarked)  EC50 (ADRB1 (Meleagris gallopavo, UniProt P07700, C116L/C358A/del244-271/del277-278); CRE-SPAP reporter gene, agonist; CHO cells): 0.263 µM
COP(=S)(OC)Oc1nc(Cl)c(Cl)cc1Cl  EC50 (Estrogen receptor (ESR1, Homo sapiens, UniProt P03372); agonist): > 100 µM
O=C(CCCCCCCCCN=C=S)CC(=O)N[C@H]1CCOC1=O  EC50 (sdiA): 0.004 µM
O=C(C1CCCCC1)N1CC(=O)N2CCc3ccccc3C2C1 (centres unmarked)  EC50 (TRPM channel (Clonorchis sinensis, UniProt G7YJJ5)): 0.85 ± 0.22 µM
CCCCCCCCCCCC(=O)N[C@H]1CCOC1=O  EC50 (sdiA): 0.0158 µM
C=CC(O)CCCCC (centres unmarked)  EC50 (GPRor8 (Aedes aegypti, UniProt Q16MN0); ion current, agonist, two-electrode voltage clamp; Xenopus oocytes): 2.14 µM

Repeated from above:
CC[C@H](C)[C@H](NC(=O)[C@H](C)NC(=O)[C@@H](NC(=O)[C@H](C)NC(=O)[C@H](C)NC(=O)[C@H](CC(N)=O)NC(=O)[C@H](Cc1c[nH]c2ccccc12)NC(=O)[C@@H](NC(=O)[C@H](CO)NC(=O)[C@@H](N)CO)C(C)C)[C@@H](C)O)C(=O)O  EC50 (H2-D1 17; H-2D stabilisation, flow cytometry; RMA-S TAP-deficient; overnight): 5 µM
